Measured values of several laboratories.
Each line is one published result; not all experiments were run side by side. “And” joins repeats or separate records; there may be more than shown. ± gives the spread as reported.
GLP1R: Glucagon-like peptide 1 receptor (GLP1R, Homo sapiens, UniProt P43220)

Compound	target	test	test system	conditions	how to read	measurement	value
Nc1ncnc2c1ncn2[C@@H]1O[C@H](COP(=O)(O)CP(=O)(O)OP(=O)(O)O)[C@@H](O)[C@H]1O	P2X purinoceptor 1 (P2RX1, Homo sapiens, UniProt P51575, K140A)	saturation binding	HEK293	52 nM		specific binding	6140 CCPM and 2940 CCPM and 1880 CCPM
CCOc1ccc(C(=O)CC(SCc2ccc(Cl)cc2)C(=O)OC)cc1 (stereo not drawn)	PLEKHA3, PH domain (Homo sapiens, UniProt Q9HB20)	fluorescence polarization			reference: other family proteins over target	selectivity ratio	~30 fold
O=c1nc(SCc2cc(F)cc(C(F)(F)F)c2)nc(SCc2ccc3sccc3c2)[nH]1	DNA topoisomerase 2-alpha (TOP2A, Homo sapiens, UniProt P11388)	DNA relaxation		31.25 µM		mean relaxed DNA	3.1%
CNc1ccc(-c2nc3ccc(O)cc3s2)cc1	Amyloid-beta precursor protein, amyloid-beta (APP, Homo sapiens, UniProt P05067)	binding, competition binding	amyloid-beta aggregates	500 nM, with: tritiated amyloid ligand		inhibition	79.3% and 81.7%
CC[C@H](C)[C@H](NC(=O)[C@H](Cc1ccccc1)NC(=O)[C@H](CCC(=O)O)NC(=O)[C@H](CCCNC(=N)N)NC(=O)[C@H](C)NC(=O)[C@H](C)NC(=O)[C@H](CCC(N)=O)NC(=O)[C@H](CCC(=O)O)NC(=O)[C@H](CCC(=O)O)NC(=O)[C@H](CC(C)C)NC(=O)[C@H](Cc1ccc(O)cc1)NC(=O)[C@H](CO)NC(=O)[C@H](CO)NC(=O)[C@@H](NC(=O)[C@H](CC(=O)O)NC(=O)[C@H](CO)NC(=O)[C@@H](NC(=O)[C@H](Cc1ccccc1)NC(=O)[C@@H](NC(=O)CNC(=O)[C@H](CCC(=O)O)NC(=O)[C@H](C)NC(=O)CCc1cnc[nH]1)[C@@H](C)O)[C@@H](C)O)C(C)C)C(=O)N[C@@H](C)C(=O)N[C@@H](Cc1c[nH]c2ccccc12)C(=O)N[C@@H](CC(C)C)C(=O)N[C@H](C(=O)N[C@@H](CCCCNC(=O)COCCOCCNC(=O)COCCOCCNC(=O)CC[C@H](NC(=O)CCCCCCCCCCCCCCCCC(=O)O)C(=O)O)C(=O)NCC(=O)N[C@@H](CCCNC(=N)N)C(=O)N[C@@H](CCCCNc1c(NCCCCCN(O)C(=O)CCC(=O)NCCCCCN(O)C(=O)CCC(=O)NCCCCCN(O)C(C)=O)c(=O)c1=O)C(=O)NCC(=O)NCC(=O)N[C@@H](CO)C(=O)N[C@@H](CCCCNc1c(NCCCCCN(O)C(=O)CCC(=O)NCCCCCN(O)C(=O)CCC(=O)NCCCCCN(O)C(C)=O)c(=O)c1=O)C(=O)NCC(=O)NCC(=O)N[C@@H](CO)C(=O)N[C@@H](CCCCNc1c(NCCCCCN(O)C(=O)CCC(=O)NCCCCCN(O)C(=O)CCC(=O)NCCCCCN(O)C(C)=O)c(=O)c1=O)C(=O)O)C(C)C	GLP1R	agonist, CRE luciferase reporter	BHK cells	metal-free DFO conjugate, with: 0% HSA	reference: parent peptide	fold potency loss	7.4
N=C(N)Nc1nc2ccccc2[nH]1	Voltage-gated hydrogen channel 1 (HVCN1, Homo sapiens, UniProt Q96D96, F149W/F150A)	proton current, inhibitor, inside-out patch clamp				Hill coefficient	0.92 ± 0.05
NCCCS(=O)(=O)O	Sodium- and chloride-dependent taurine transporter (SLC6A6, Homo sapiens, UniProt P31641, G62A)	binding, microscale thermophoresis		244 nM, room temperature, with: 50 nM labelled protein	higher = more binding	normalised MST signal	0.0303
COc1cc(Nc2ncc3c(n2)-c2ccc(Cl)cc2C(c2c(F)cccc2OC)=NC3)ccc1C(=O)O	PKC beta II	inhibitor, biochemical kinase		1 µM		remaining activity	104%
[O-][S+]1CCCCS1 (stereo not drawn)	Superoxide dismutase [Cu-Zn] (SOD1, Homo sapiens, UniProt P00441, G94A)	intact protein LC-MS	SOD1 G93A transgenic mice, whole blood	intravenous, 10 mg/kg, 72 h, mean of two mice		target engagement	15.9%
CC[C@H](C)[C@@H]1NC(=O)[C@H]([C@@H](C)CC)NC(=O)[C@@H](Cc2ccc(O)cc2)NC(=O)CSC[C@@H](C(N)=O)NC(=O)[C@H](CCCNC(=N)N)NC(=O)[C@H](CCCCN)NC(=O)[C@H](CC(C)C)NC(=O)[C@H](CO)NC(=O)[C@H](CO)NC(=O)[C@H](CC(C)C)NC(=O)[C@H](Cc2ccccc2)NC(=O)[C@H](C(C)C)NC(=O)CNC(=O)[C@H](CC(C)C)NC(=O)[C@@H]2CCCN2C(=O)[C@H]([C@@H](C)O)NC(=O)[C@H](CC(=O)O)NC1=O	Vacuolar protein sorting-associated protein 29 (VPS29, Homo sapiens, UniProt Q9UBQ0)	binding, ITC		25 °C, protein alone		ΔG	-9.5 ± 0.06 kcal/mol
O=C1CCC(N2C(=O)c3cccc(NCCCCNC(=O)c4cccc(C#Cc5cc(NC(=O)Nc6ccnc(Cl)c6)ccn5)c4)c3C2=O)C(=O)N1 (stereo not drawn)	SWI/SNF-related matrix-associated actin-dependent regulator of chromatin subfamily A member 4, residues 537-1393 (SMARCA4, Homo sapiens, UniProt P51532)	ITC		concentration not given		binding stoichiometry	2.42
COc1cc(N2CCC(N3CCN(C)CC3)CC2)ccc1Nc1ncc(Cl)c(Nc2ccccc2P(C)(C)=O)n1	ALK tyrosine kinase receptor/Echinoderm microtubule-associated protein-like 4 (Homo sapiens, UniProt Q9HC35+Q9UM73)	degrader, immunoblotting, measured: ALK tyrosine kinase receptor/Echinoderm microtubule-associated protein-like 4	Ba/F3 EML4-ALK	concentration not given, 24 h, unit not given	reference: untreated	protein level	0.945 and 1.03 and 1.01
COc1cc(/C=N/NC(=O)c2cc3c(ccc4ccccc43)o2)cc(OC)c1O	Glucocorticoid receptor (NR3C1, Homo sapiens, UniProt P04150)	SRC1-4 coactivator displacement, inhibitor, TR-FRET		up to 100 µM, with: dexamethasone		activity	inactive
CC[C@H](C)[C@H](NC(=O)[C@H](Cc1ccccc1)NC(=O)[C@H](CCC(=O)O)NC(=O)[C@H](CCCNC(=N)N)NC(=O)[C@H](C)NC(=O)[C@H](C)NC(=O)[C@H](CCC(N)=O)NC(=O)[C@H](CCC(=O)O)NC(=O)[C@H](CCC(=O)O)NC(=O)[C@H](CC(C)C)NC(=O)[C@H](Cc1ccc(O)cc1)NC(=O)[C@H](CO)NC(=O)[C@H](CO)NC(=O)[C@@H](NC(=O)[C@H](CC(=O)O)NC(=O)[C@H](CO)NC(=O)[C@@H](NC(=O)[C@H](Cc1ccccc1)NC(=O)[C@@H](NC(=O)CNC(=O)[C@H](CCC(=O)O)NC(=O)[C@H](C)NC(=O)CCc1cnc[nH]1)[C@@H](C)O)[C@@H](C)O)C(C)C)C(=O)N[C@@H](C)C(=O)N[C@@H](Cc1c[nH]c2ccccc12)C(=O)N[C@@H](CC(C)C)C(=O)N[C@H](C(=O)N[C@@H](CCCNC(=N)N)C(=O)NCC(=O)N[C@@H](CCCNC(=N)N)C(=O)N[C@@H](CCCCNC(=O)COCCOCCNC(=O)COCCOCCNC(=O)CC[C@H](NC(=O)CCCCCCCCCCCCCCCCC(=O)O)C(=O)O)C(=O)NCC(=O)NCC(=O)N[C@@H](CO)C(=O)N[C@@H](CCSC)C(=O)N[C@H](C(=O)N[C@@H](CCCCNc1c(NCCCCCN(O)C(=O)CCC(=O)NCCCCCN(O)C(=O)CCC(=O)NCCCCCN(O)C(C)=O)c(=O)c1=O)C(=O)O)C(C)C)C(C)C	GLP1R	agonist, CRE luciferase reporter	BHK cells	metal-free DFO conjugate, with: 1% HSA	reference: parent peptide	fold potency loss	1.9
Cc1ccc(N2CC(C(N)=O)CC2=O)cc1 (stereo not drawn)	Transcription intermediary factor 1-alpha, PHD-bromodomain (TRIM24, Homo sapiens, UniProt O15164)	binding, affinity selection mass spectrometry			reference: other proteins in batch	log fold enrichment	0.0529
CC[C@H](C)[C@H](NC(=O)[C@H](Cc1ccccc1)NC(=O)[C@H](CCC(=O)O)NC(=O)[C@H](CCCNC(=N)N)NC(=O)[C@H](C)NC(=O)[C@H](C)NC(=O)[C@H](CCC(N)=O)NC(=O)[C@H](CCC(=O)O)NC(=O)[C@H](CCC(=O)O)NC(=O)[C@H](CC(C)C)NC(=O)[C@H](Cc1ccc(O)cc1)NC(=O)[C@H](CO)NC(=O)[C@H](CO)NC(=O)[C@@H](NC(=O)[C@H](CC(=O)O)NC(=O)[C@H](CO)NC(=O)[C@@H](NC(=O)[C@H](Cc1ccccc1)NC(=O)[C@@H](NC(=O)CNC(=O)[C@H](CCC(=O)O)NC(=O)[C@H](C)NC(=O)CCc1cnc[nH]1)[C@@H](C)O)[C@@H](C)O)C(C)C)C(=O)N[C@@H](C)C(=O)N[C@@H](Cc1c[nH]c2ccccc12)C(=O)N[C@@H](CC(C)C)C(=O)N[C@H](C(=O)N[C@@H](CCCNC(=N)N)C(=O)NCC(=O)N[C@@H](CCCNC(=N)N)C(=O)N[C@@H](CCCCNC(=O)COCCOCCNC(=O)COCCOCCNC(=O)CC[C@H](NC(=O)CCCCCCCCCCCCCCCCC(=O)O)C(=O)O)C(=O)NCC(=O)NCC(=O)N[C@@H](CO)C(=O)N[C@@H](CCCCNc1c(NCCCCCN(O)C(=O)CCC(=O)NCCCCCN(O)C(=O)CCC(=O)NCCCCCN(O)C(C)=O)c(=O)c1=O)C(=O)NCC(=O)NCC(=O)N[C@@H](CO)C(=O)N[C@@H](CCCCNc1c(NCCCCCN(O)C(=O)CCC(=O)NCCCCCN(O)C(=O)CCC(=O)NCCCCCN(O)C(C)=O)c(=O)c1=O)C(=O)O)C(C)C	GLP1R	agonist, CRE luciferase reporter	BHK cells	metal-free DFO conjugate, with: 1% HSA	reference: parent peptide	fold potency loss	1.9
CC1(C)CN(CCCCC(=O)N[C@H](Cc2ccccc2)C(=O)N[C@H](Cc2ccccc2)C(=O)N[C@H](CCCCNC(=O)CCCCCCC(=O)NCCCC[C@H](NC(=O)N[C@@H](CCC(=O)O)C(=O)O)C(=O)O)C(=O)O)CC[N]2CC(C)(C)[S][Tc]2(=[O])[S]1 (stereo partly drawn) [technetium-99m labelled]	Glutamate carboxypeptidase 2 (FOLH1, Homo sapiens, UniProt Q04609)	saturation binding	LNCaP			Bmax	4 µmol/mg
CC(=C/C(=O)O)/C=C/C=C(\C)C1C=C2C(C)(C)CCCC2(C)O1 (stereo not drawn)	Rhodopsin (RHO, Homo sapiens, UniProt P08100, E181K)	ER retention, immunostaining co-localization, measured: opsin with calnexin	COS-7 transfected E181K	50.00 µM		Pearson correlation coefficient	0.42
